Measurements pooled from the literature.
A part holds a random share of what one study measured.

Study 1
Target: Histone acetyltransferase KAT6A, both winged helices, GST fusion (KAT6A, Homo sapiens, UniProt Q92794, residues 1-181)
Method: protein binding microarray
Molecule type: double-stranded DNA, one strand shown
Medium: in vitro
Tested at: not given
Setting: 8-mer, flanks averaged, mean of 2 arrays, mostly near background
Reference: not given
Direction: higher = stronger binding
Construct (chain): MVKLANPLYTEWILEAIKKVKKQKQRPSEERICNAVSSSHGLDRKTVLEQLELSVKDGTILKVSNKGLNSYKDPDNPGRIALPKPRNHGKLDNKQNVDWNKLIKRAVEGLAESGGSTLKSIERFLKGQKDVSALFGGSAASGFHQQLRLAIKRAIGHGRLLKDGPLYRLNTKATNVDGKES
Sequence | E-score
ATGAACAC | -0.0125
TAACCGTA | 0.191
AACACGTG | 0.0614
CCACTCGA | -0.184
CCGTGGAA | 0.23
ATCAGATA | -0.0864
ACAGAAAC | -0.0996
GCGCAAAC | 0.197
ACTGTCTA | -0.0862
GGTGGCAA | -0.215
ACCGACAC | 0.134
AAGAAGTC | -0.0923
AGATAGTC | -0.0678
CGTGCAAC | 0.0761
ATCGGTAC | 0.0483
CTCGCAAC | -0.0067
GAGCGTAA | 0.122

Study 2
Target: Interferon regulatory factor 7, full length, phosphomimetic (IRF7, Homo sapiens, UniProt Q92985, residues 1-503, S101K/S471D/S472D/S475D/S476D/S477D/S483D/S484D/S487D)
Method: protein-binding microarray
Molecule type: double-stranded DNA, one strand shown
Medium: in vitro
Tested at: 250 nM
Setting: 60-bp whole probe
With: salmon DNA 0.4 mg/ml
Reference: random background probes
Direction: higher = stronger binding
All sequences stand within: GCCTAGCAC … GTCTTGATTCGCTTGACGCTGCTG
Target sequence (chain): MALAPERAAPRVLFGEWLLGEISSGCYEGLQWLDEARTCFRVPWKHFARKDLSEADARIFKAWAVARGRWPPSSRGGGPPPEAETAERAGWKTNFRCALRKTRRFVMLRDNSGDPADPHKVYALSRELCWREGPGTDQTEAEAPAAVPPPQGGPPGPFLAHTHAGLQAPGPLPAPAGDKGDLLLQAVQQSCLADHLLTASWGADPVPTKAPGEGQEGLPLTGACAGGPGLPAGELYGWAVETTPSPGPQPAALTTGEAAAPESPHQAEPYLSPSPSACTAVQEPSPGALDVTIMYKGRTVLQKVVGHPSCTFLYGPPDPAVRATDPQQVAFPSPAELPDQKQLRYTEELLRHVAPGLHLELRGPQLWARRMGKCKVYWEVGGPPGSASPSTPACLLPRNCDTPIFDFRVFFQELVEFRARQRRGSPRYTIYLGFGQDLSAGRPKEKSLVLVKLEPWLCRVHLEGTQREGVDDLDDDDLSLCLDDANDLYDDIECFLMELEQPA
Sequence | log fluorescence [z-score]
TAATTTCCATTTTCTAAATGCGTGCTA | 4.23
TTAGATTCCAGTTTCGAATAGTGCTAG | 6.65
GACGGAGTGCTTATCCTGACGTGCTAG | -0.281
TGCTGTGTACATCTCTCTTAGTGCTAG | -0.629
TTAGGTATCGGGACTAGGTTAGTGCTA | 0.265
TTAGGTTTCCTACAGCTTTAGTGCTAG | 0.524
TTAGGACTGGATCTCGGTTAGTGCTAG | 0.275
GACGGGATCGACTTTCGGGACGTGCTA | 0.555
TCATCTTTCTACATAGAACTGTGCTAG | 0.912
GACGATTTCAGACAGGAGACGTGCTAG | 0.09
GACGGTATCGGTATCGCGACGTGCTAG | 1.16

Study 3
Target: Fragile X messenger ribonucleoprotein 1, C-terminal low-complexity region (Fmr1, Mus musculus, UniProt P35922)
Method: RNA Bind-n-Seq
Molecule type: RNA
Medium: in vitro
Tested at: 200 nM
Setting: whole 134-nt RNA, ends assumed
With: 150 mM LiCl
Reference: input library
Direction: higher = stronger binding
All molecules: 7-deaza-guanosine replaces G
All sequences stand within: GGGAGUUCUACAGUCCGACGAUC … UGGAAUUCUCGGGUGUCAAGG
Sequence | log2 enrichment
CUGUGCUACACAUCGUAUGUACCGAAUCGGGGUUUUUUUGGGGAAAAAAAGGGGUUUGGGGAAAGUAUUAUGUUACGCCGUUCGGAUCUG | -2.03
UGGGAGGUGGAUUUUGUUUAUUUUUUUAGCACAUUUCCAGGGGUGGGAAUUUUUUUUUAAUAUGUGUCAUGAAUAAAGUUGUUUUUGAAA | -0.059
UCAAGUCCUGUGCUACACAUCGUAUGUACCGAAUCGGGGAAGGGGAAGGGAAGGGAAAGUAUUAUGUUACGCCGUUCGGAUCUGCACUUC | -0.709
CUGUGCUACACAUCGUAUGUACCGAAUCGGGGAAAAAAAGGAAAAAAAGGGAAAAAAAGGGAAAGUAUUAUGUUACGCCGUUCGGAUCUG | -0.174
CUCAAGUCCUGUGCUACACAUCGUAUGUACCGAAUCGGGCCGGCCGGGGCCGGGAAAGUAUUAUGUUACGCCGUUCGGAUCUGCACUUCC | 0.864
UGCCCUCCGUGGAGUCUUUGUUUCGAAGUCCGAUAAAGGAAUCUCUAUUCCGGUCUUCUUCUAAAGAGUCUUUGGUACGAACAUCUUCCA | -0.407
GUCCUGUGCUACACAUCGUAUGUACCGAAUCGGAAAAAGGUUUUUUUGGUUUUUUUGGAAAGUAUUAUGUUACGCCGUUCGGAUCUGCAC | -2.72

Single results of other studies
Molecule | target | assay | system | setting | how to read | measurement | result
PhoQ, residues 284 288 289 292 302 303 TVTVVA | PhoP, residues 12 14 15 18 19 LHATL (Escherichia coli, UniProt P23836) | Sort-seq, measured: YFP reporter | E. coli | PhoQ-PhoP variant library, with: 10 µM Mg2+ | reference: high Mg2+ state, higher = stronger signaling | fold induction | 1.55
